Measurements from different studies.
Numbered parts are unrelated; each lists some results of a single study.

Series 1
Target: Protein C-ets-1 (ETS1, Homo sapiens, UniProt P14921, residues 1-441, full length assumed)
Sequence of UniProt P14921 (whole entry, looked up): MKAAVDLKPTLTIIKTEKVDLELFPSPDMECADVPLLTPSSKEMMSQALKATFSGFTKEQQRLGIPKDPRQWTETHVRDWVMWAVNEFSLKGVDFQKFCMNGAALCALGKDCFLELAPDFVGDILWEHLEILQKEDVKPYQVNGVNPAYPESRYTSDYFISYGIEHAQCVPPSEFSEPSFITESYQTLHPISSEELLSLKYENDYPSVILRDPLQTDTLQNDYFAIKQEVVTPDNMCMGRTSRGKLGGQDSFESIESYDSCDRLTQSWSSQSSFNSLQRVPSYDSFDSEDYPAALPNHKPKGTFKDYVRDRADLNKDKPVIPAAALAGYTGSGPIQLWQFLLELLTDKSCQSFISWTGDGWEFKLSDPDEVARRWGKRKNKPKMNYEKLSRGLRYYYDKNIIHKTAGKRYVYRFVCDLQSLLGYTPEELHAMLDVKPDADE
Method: protein-binding microarray
Form: double-stranded DNA, one strand shown
Matrix: in vitro
Concentration: not given
Notes: k-mer, scored over probes, only values ≥0.25
Direction: higher = stronger binding
Strand | E-score
AAGTCCGG | 0.335
AAACGGGA | 0.346
AAGGAAAC | 0.386
CCTGTCCC | 0.259
ATGGGAAA | 0.284
ATTGCGGA | 0.312
ATCCTGGA | 0.39
CCTTCCAG | 0.299
ACGGAAGG | 0.441
GGTCTGCA | 0.286
AGGCGGAC | 0.254
CCCCATCC | 0.378
GGAACTTA | 0.31
AAAGGAAC | 0.265
CGGAACTC | 0.41
ATACTTCC | 0.439

Series 2
Target: Centromere-binding protein 1, full length, N-terminal tag (CBF1, Saccharomyces cerevisiae, UniProt P17106, residues 1-351)
Sequence of UniProt P17106 (whole entry, looked up): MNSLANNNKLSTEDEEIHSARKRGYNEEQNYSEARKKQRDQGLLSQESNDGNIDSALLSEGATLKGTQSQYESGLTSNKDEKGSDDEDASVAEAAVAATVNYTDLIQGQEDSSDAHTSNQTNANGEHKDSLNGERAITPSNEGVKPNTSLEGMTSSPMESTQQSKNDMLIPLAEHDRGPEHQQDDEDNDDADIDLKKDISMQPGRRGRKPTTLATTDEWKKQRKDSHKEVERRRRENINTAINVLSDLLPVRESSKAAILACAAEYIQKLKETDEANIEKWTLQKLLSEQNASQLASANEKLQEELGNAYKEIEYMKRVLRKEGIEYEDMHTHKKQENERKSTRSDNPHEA
Method: protein-binding microarray
Form: double-stranded DNA, one strand shown
Matrix: in vitro
Concentration: 0.8 µM
Notes: whole 60-bp probe, no competitor
Direction: higher = stronger binding
Strand | fluorescence intensity
TGTACGAAGCTATATAATCACGTTATAGTAGTTAGGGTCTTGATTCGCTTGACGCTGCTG | 1400 a.u.
CCTAACTACTATACACATGTGCGATAGCTTCGTACAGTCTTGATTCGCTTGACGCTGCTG | 932 a.u.
CCTAACTACTATATACATGTGAAATAGCTTCGTACAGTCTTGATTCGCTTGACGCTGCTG | 611 a.u.
GAAGGCCAACAAATACTTGGTCACAGAATGCAATAGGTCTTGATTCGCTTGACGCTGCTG | 522 a.u.
CTAAGCAGTACGGCTCTGATGTTTTTCGAACGATTCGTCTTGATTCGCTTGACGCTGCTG | 497 a.u.
GAATGCCTGCAGACCCACGTCTACAAATTTTGGTAGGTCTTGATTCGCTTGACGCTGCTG | 505 a.u.
GAACTTGTACGTTTTAACAACGTGAAGCACAACTAGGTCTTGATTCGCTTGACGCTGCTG | 635 a.u.
GAACCCAAAATATACGGTGTCACCTCCTACTTTTAGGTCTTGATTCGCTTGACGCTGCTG | 491 a.u.
GAATGTATGTTTTTTAACGTGCATAATTATTAATAGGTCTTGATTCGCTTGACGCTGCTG | 541 a.u.
CTAAATGAAGTGCATCATGAAATATTCATGACGTTCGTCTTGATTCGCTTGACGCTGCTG | 501 a.u.
GAATGTGTGATGGACATCAGCATTCAATGTATATAGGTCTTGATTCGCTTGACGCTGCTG | 494 a.u.
GAACAAGAACTCGTTTACGTGCCGCGAAAAGTCTAGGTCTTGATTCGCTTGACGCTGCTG | 532 a.u.
CTAATATATATATAGAACACCACCCTTGGAAAATTCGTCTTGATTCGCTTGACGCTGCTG | 632 a.u.
GAATGTTGATTTTATTTTGTGATCTTTAGAATGTAGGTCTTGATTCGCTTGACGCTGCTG | 543 a.u.
GAATTCTCCTCAGTTCACATGATAAAGATACTTTAGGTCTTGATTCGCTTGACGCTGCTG | 992 a.u.
GAAATATGAATTACTCAGGTGTGAATTTTGCAATAGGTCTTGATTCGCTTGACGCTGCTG | 517 a.u.

Series 3
Target: RING finger protein unkempt homolog, zinc fingers 1-6, GST-SBP tag (UNK, Homo sapiens, UniProt Q9C0B0, residues 30-357)
Sequence of UniProt Q9C0B0 (30-357, looked up): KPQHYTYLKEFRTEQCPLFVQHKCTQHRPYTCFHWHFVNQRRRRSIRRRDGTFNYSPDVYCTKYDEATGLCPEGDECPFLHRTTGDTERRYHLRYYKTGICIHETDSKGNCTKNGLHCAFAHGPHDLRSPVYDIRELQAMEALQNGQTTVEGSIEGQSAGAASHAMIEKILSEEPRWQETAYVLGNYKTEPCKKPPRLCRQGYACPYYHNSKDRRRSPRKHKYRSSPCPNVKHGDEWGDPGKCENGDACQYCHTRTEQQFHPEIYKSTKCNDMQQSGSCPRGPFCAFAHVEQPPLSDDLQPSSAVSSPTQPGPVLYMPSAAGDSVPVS
Method: RNA Bind-n-Seq
Form: RNA
Matrix: in vitro
Concentration: not given
Notes: RNA with constant flanks, human and mouse sites, ends assumed
Baseline: input RNA pool
Direction: higher = stronger binding
Strand | bound/input enrichment
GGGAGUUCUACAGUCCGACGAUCGAGCCCUAUGGCUUCCGUGCCUCAGUGUUAUUCGAUACAAUGCAACACCAUCUAGCCUUGAAUAGAGAUUUGUCCACACCUGGCCUGGAGAAGGACAGUGGAGGGAAGACACCUGGUGACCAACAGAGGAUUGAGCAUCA | 0.445 ratio
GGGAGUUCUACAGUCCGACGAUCUCCGCGGAAGUCCCCGAGGCAGCGUCUGCGGAGGAGCAAAAGGAAAUGGAAGAUAAAGUAACUAGUCCAGAGAAAGCUGAAGAAGCAAAGUUAAAGGCAAGGUAUCCUCACUUGGGACAACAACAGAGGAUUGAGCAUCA | 0.417 ratio
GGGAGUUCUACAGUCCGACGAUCUUAUUUUCUAAAAAUUGUUACAUGCAAAUUUAAACCAAGAUUUAUCAGUAAAAGAAAAAAAUAGAAUCCUUAAUAAUGUAAAUGUUGUUAUAUAUGCUACCCUGGUGAAAAUAUUUUUAUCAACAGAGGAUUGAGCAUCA | 3.22 ratio
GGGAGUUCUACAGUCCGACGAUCACCGCAUUCAUAGUAGAAAGAGACUUCGGCGGAAUCACUAAUGGGAAACCUGAAGAUAAAUUAGGCAUUCGAGGCUCCAACACAUGUGAGGUCCAUUUUGAAAAUACCAGAGUGCCUGUGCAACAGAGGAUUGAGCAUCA | 0.251 ratio
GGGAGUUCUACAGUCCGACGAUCGAGGAGGAGGGAAAGUCUAGCUCACCAAAGAAAAAGAUCAAGUUGAAGAAAAGUAAAAAUGUAGCAACUGAAGGAACCAGUACCCAGAAAGAAUUUGAAGUGAAAGAUCCUGAGCUGGAGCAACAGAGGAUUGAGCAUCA | 0.608 ratio
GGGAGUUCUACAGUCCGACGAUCAAUGAUAUCAAACCAGCCUUUGGCACAAACCAAGAAGAUUAUGCAAGUUACAUUAUGAACGGUAUCAUCAAAUGGGGUGACCCAGUUACUCGAGUUCUAGAUGAUGGGGAGCUGCUGGUGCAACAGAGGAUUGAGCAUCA | 0.22 ratio
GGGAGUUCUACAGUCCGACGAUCCAGAUCCAUAGGGAUUUGAAAGCUGGAAAUAUUCUUCUGGGUGAGGAUGGCUCAGUACAAAUAGCAGAUUUUGGAGUAAGCGCAUUCUUAGCCACAGGGGGUGAUGUUACACGGAAUAAACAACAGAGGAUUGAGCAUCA | 0.415 ratio
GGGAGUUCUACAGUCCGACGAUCAACAAACUUAUAGUGAUGCGUUGGAAGGUUAAUCGAAACCAUCCUUACCCCUAUUUAAUGUAGUUUACCUUGAUUUUUAUCUGAUAUUAACAAUACCAUAUAGCUUGCUUUUUAUUAGCACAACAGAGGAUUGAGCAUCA | 29.8 ratio
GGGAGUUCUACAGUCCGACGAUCUCCCUCGCCUGUGGUAAACCAACACAGCGGGUCCUCACAAAAGAACCCAAGUCCAAGGAGAUAGAAAGUGGCCACAUAUUUACAGUUAAUGAUCAAUUCACAUCUAAACUACACAGAGUCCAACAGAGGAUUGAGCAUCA | 0.533 ratio
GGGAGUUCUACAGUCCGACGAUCCAGUGGGAUGGGGAGCAAAGUCCCAGAGGGGAGCGCAACAGGUGGAAGUAUGAGGAGUUUUUAGAUCAUCCAGGCCAUAUCCACAGUAGUCCUUGCCACGAAAGGCCCAACAAUGUCUCUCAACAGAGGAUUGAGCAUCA | 0.121 ratio
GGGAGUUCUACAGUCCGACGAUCGCAAAAGUAGAACAGCUUGCAGUGAGAUUUAAGACAAAGGAAAUGACUGAGAGUUUUAAGAAAAAAUUUGAAGAAUGUCAACAAAAUAUAAUAAAACUCCAGAAUGGACAUACAUCCCUUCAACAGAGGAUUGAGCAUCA | 0.445 ratio

Series 4
Target: RNA binding protein fox-1 homolog 2, RRM domain, GST-SBP tag (RBFOX2, Homo sapiens, UniProt O43251-10, residues 100-194)
Method: RNA Bind-n-Seq
Form: RNA
Matrix: in vitro
Concentration: 365 nM
Notes: natural RNA segment, single round, ends assumed
Baseline: no-protein control
Direction: higher = stronger binding
Construct (chain): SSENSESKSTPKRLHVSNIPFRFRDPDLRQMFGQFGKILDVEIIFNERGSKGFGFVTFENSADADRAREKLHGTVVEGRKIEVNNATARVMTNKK
Strand | RBNS enrichment (R)
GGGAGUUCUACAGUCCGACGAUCCGCCAGGAUAAAUUCUGCUUCCACCCCACAAAGGCAGUCACAGGAGAGAGUGGAGAGAGCAGUAAGGAGGCCACUGGAAGGAGCCAGACACAGAUUCUGGUUCAUUCAUUUGGAAUUCUCGGGUGCCAA | 0.416
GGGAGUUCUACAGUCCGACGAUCUGGAGAGAACCUCACCAAACAGCUGGUGUGGCCUGAGGGUGGCCAUGGUGGGAAAUGGGCAUGAGAAUAAAUACCUCCCCAAAUUCAAUCUGAGCCCAGCAGGAGAGGAUUGGAAUUCUCGGGUGCCAA | 0.647
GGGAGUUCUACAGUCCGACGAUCCCUGCAGGGCAGGUCCUAGGAUGGGAAAGACAAAUGUACACCUUUCUAUGGCUCUUCCUGAGAGCACACCUCUGGGUCUCAUCUGACAGAGUCUGUGGGCCAAGUGUCUGUGGAAUUCUCGGGUGCCAA | 0.365
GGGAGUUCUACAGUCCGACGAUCCACUGUCUCCAAUAGAAAGUGAAAAGAGAAGUGUGUGUAUAGCUCAGUGGUAGAGUGCUUGCCUGAUAUACAGGAAGCCUCAGUUUAAUCCUAAAUCCCAUUUCAAAAAUUGGAAUUCUCGGGUGCCAA | 0.248
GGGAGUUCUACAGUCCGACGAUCUGUAAAGAAAGAGGGACUGCAGUGUAGCUCCUUUAGUGGUGAGACAUGAAGGCUGUGGCAAUCUCAAGAAAUCAUUUUAAUUUGUACAUAUAUUUUCAGGUUCUGCCCACUGGAAUUCUCGGGUGCCAA | 0.377
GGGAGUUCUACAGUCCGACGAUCCAUAUCCCAGCCACCUGUGUACAGGGGCUCACUUUGUGUGCUCCUUGUUGCCUGAGAAGAAACCUUGGGGUGCCAGGGUGGGGGCAGAAGCAUGGGCUGGGUUCCGGUUCUGGAAUUCUCGGGUGCCAA | 0.454
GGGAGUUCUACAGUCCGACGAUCUUCUGCGUUGGCUGGGGCAGAGCUCAGCACCCUCAGCCCUGCGGCCGUUCAUCUUGUGUGUUUGUGACUUACUUUUGUAGCCUGUCAUCUUCUGGGCCCAGAGUCAGGGUUGGAAUUCUCGGGUGCCAA | 0.521
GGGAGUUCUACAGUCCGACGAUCUGGGAGUCCCGGGACAGAGUGCCCACUCCCCUCUACUUGCUGCUCUGGGCCUCCCCACCUUUCCUGGGGUCUCCACAUUCCCACUAGUGGGUCUUAUGUGUGUCUGUGUCUGGAAUUCUCGGGUGCCAA | 0.517
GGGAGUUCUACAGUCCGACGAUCAAUAGAGCCUGUGCAUGGACCCAGCACUGUCAAUAGGCACAGGACUCUCCCUCCUCCGGCUGUGACUGGCAGAUUGUCACCACAGUAGAGAACCUUUCCCCUGUACUUUUUGGAAUUCUCGGGUGCCAA | 0.997
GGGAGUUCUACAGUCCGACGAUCAAUAAAACAUCAAAUUAGGUUUGGAGGGAACUUUGAUCUUCCUAAGAAUUAAAGUUGCCAAAUUAUUCUGAUUGGUCUUUAAUCUCCUUAAGUUUUUGAUUUAUCUUACUUGGAAUUCUCGGGUGCCAA | 0.433
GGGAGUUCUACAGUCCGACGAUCUACUGAUCAUUGAUAGUAUUACAAAUAAAUGUCUCUUCCUUUCUCUUCCUCCCUUCCUCCCCCUGCCUUCCUCUUAACCUAUGUGCUCAUCCUUGCUACUUGAGGCUGUUUGGAAUUCUCGGGUGCCAA | 1.41
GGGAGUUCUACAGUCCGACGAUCAGGGAGAGGCUGUGGUGGCUGUCUCUGUCCCUCACUGCCUUCCAGGAGCAAUUUGCACAUGUAACAUAGAUUUAUGUAAUGCUUUAUGUUUAAAAACAUUCCCCAAUUAUUGGAAUUCUCGGGUGCCAA | 1.2

Series 5
Target: Histone acetyltransferase KAT6A, winged helix 1, GST fusion (KAT6A, Homo sapiens, UniProt Q92794, residues 1-85)
Method: protein binding microarray
Form: double-stranded DNA, one strand shown
Matrix: in vitro
Concentration: not given
Notes: 8-mer, flanks averaged, mean of 2 arrays, mostly near background
Baseline: not given
Direction: higher = stronger binding
Residues (chain): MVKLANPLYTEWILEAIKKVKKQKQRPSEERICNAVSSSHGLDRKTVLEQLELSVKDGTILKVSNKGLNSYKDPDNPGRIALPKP
Strand | E-score
CCGAAAAA | -0.08
CGGAATGA | 0.0698
AATTGTCC | -0.0954
AGTCTTAC | -0.141
GCGACACA | 0.0961
AATCACCC | -0.246
GCCGAAAC | 0.0922
CGCAAGCG | 0.359
CCATCATA | -0.237
CCCCTCCA | -0.0295
TAGTGAAA | -0.216
AGTCACGG | 0.328
CAGGCGGG | 0.304
CTCGGCTA | 0.171
CGGGCCCA | 0.028
ATATAAAT | -0.0349
AAGAACGC | 0.0307
AGTACAAG | -0.178

Series 6
Target: Sal-like protein 4, full length isoform B (SALL4, Homo sapiens, UniProt Q9UJQ4-2, residues 1-616)
Method: universal PBM
Form: double-stranded DNA, one strand shown
Matrix: in vitro
Concentration: not given
Notes: 8-mer, flanks averaged, mean of replicates
Direction: higher = stronger binding
Strand | E-score
ACGAATTC | 0.163
CGAAGTGC | 0.0324
CATCAAAC | 0.0398
ATCGGCTA | 0.0545
CTTGCAAC | 0.0564
AGTATTGG | 0.167
ATCATTCG | 0.159
CATCCTGC | -0.0625
AGCCAAGG | -0.105
AGTTACAA | 0.148
CCGCGTGC | -0.267
ATCACTCC | -0.106
AAATAACT | 0.278
ATTCCGTG | 0.00712
AGGAAGTC | -0.054
ACTCATCA | -0.00874
AACCAGAG | -0.132
ATGAACTC | 0.017
CTACGGAC | -0.146
CCAGTAGA | -0.0236
